Measurements collected from several papers.
Several values in a cell are separate wells, animals, samples, runs or records. Numbers after ± are the reported error.

SMILES	target or system	test	test system	setting	how to read	measurement	value
NS(=O)(=O)c1cc(C(=O)O)c(NCc2ccco2)cc1Cl		refers to: oropharyngeal pain	healthy men	oral, 8 days, treatment-emergent, crossover trial		subjects with adverse event	0%
CSc1ccccc1C(=O)NCCn1cc(C(=O)NCc2cccc(C)n2)c(=O)c2cc3c(cc21)OC(F)(F)O3			Sprague-Dawley rat, male, plasma	intramuscular, 3 mg/kg of parent drug		Tmax	3.67 ± 2.19 h
Nc1ncn([C@H]2C[C@H](O)[C@@H](CO)O2)c(=O)n1			mouse plasma	1.2 ng/mL, -80 °C, three freeze-thaw cycles, with THU		mean deviation from nominal	9.78%
O=C(COc1ccc(Cl)cc1)NC12CC(c3nnc([C@H]4C[C@@H](OC(F)(F)F)C4)o3)(C1)C2			human both sexes	oral, 45 mg once daily, 14 days		drug-related TEAE participants	83.3%
O=C1C[C@@H](c2ccc(O[C@@H]3O[C@H](C(=O)O)[C@@H](O)[C@H](O)[C@H]3O)cc2)Oc2cc(O)cc(O)c21			human plasma	mean		plasma concentration	705 nM
C[C@@H]1CN(c2c(F)c(N)c3c(=O)c(C(=O)O)cn(C4CC4)c3c2F)C[C@H](C)N1		starch gel membrane permeability	Gram-negative envelope surrogate	200 µM, 60 min, pH 7.4		amount permeated	1.44 nmol
C=CC(=O)Nc1cc(Nc2nccc(-c3cn(C)c4ccccc34)n2)c(OC)cc1N(C)CCN(C)C		storage stability	human dried blood spots	5 h, on ice, LLOQ level		recovery	90.9%
C=C1C(=O)O[C@@H]2C[C@@]3(C)CCCC(=C)[C@@H]3C[C@H]12	COS-7			30 µM, 24 h, 0.1% DMSO, unit not given	relative to: vehicle control	necrotic cells	1.61 ± 0.93
Cn1c(=O)[nH]c2ncn(C)c2c1=O			human, both sexes, cerebrospinal fluid			samples above LOQ	0%
CNCc1ccc(-c2[nH]c3cc(F)cc4c3c2CCNC4=O)cc1		refers to: dyspnea	human patients	oral, 600 mg twice daily, grade 2		patients with adverse event	3.8%
Cc1nc(-c2ccc(OCC(C)C)c(C#N)c2)sc1C(=O)O			KM mouse, chronic hyperuricaemia model	dose not given, day 23		body weight	32.4 g and 38.8 g and 34.3 g and 43.3 g and 36.7 g and 40.5 g
CCc1cc(C(=O)NC)c2nccc(N3CCc4c(cc(Cn5ccnc5)cc4-c4cn(C)nc4C(F)(F)F)C3=O)c2c1			Sprague Dawley rat	oral, 100 mg/kg once daily, 7 days	relative to: vehicle	lung weight change	1.77%
COc1cc(C(=O)O)cc(OC)c1O			human plasma	mean, both sexes		plasma concentration	5210 nM
O=C(O)CCC(=O)O.[2H]C([2H])([2H])Oc1cc(C)c2[nH]ccc2c1CN1CC[C@@H](C2CC2)C[C@H]1c1ccc(C(=O)O)cc1			healthy Chinese subjects	600 mg, single ascending dose		TEAE urinary sediment detected	0%
N#Cc1ccc2c(c1)[C@H]1CCCN(C(=O)c3ccc4[nH]cnc4c3)[C@H]1C2			human	20 mg, end of trial		median ACTH level	5.8 pmol/L
COc1cc(O)c2c(c1)C(=O)c1cc(C)cc(O)c1C2=O	HepaRG co-cultured with HK-2	MTT		33.33 µM, 48 h	relative to: untreated control	cell viability	94.7 ± 10.4%
CNC(=O)c1cc(Oc2ccc(NC(=O)Nc3cc(C(C)(C)C)nn3-c3ccc4ncccc4c3)c(F)c2)ccn1		refers to: worst grade 2	human	oral, dose not given, cycles 1 and 2, Medium AUC(0-4 h) subgroup		patients with musculoskeletal disorder AE	14%
C[C@@H](N)C1CCN(S(=O)(=O)c2cccc3cnccc23)CC1			healthy volunteers, fasted, plasma	oral, 75 mg		t1/2	0.81 h
C=CC(=O)N1CCC(c2ccc(C(N)=O)c(-c3ccc(Oc4ccccc4)cc3)n2)CC1			relapsed/refractory mantle cell lymphoma patients	oral, 150 mg once daily, part, CTCAE v4.03		TEAE rate	50%
CN1CCC[C@H](CN2c3ccccc3Sc3ccccc32)C1.Cl			Wistar rats, female, lymph node	oral, 16 mg/kg		Tmax	8 h
CC(=O)c1c(C)cc2cc(O)cc(O[C@@H]3O[C@H](CO)[C@@H](O)[C@H](O)[C@H]3O)c2c1O	HepaRG co-cultured with HK-2	MTT		33.33 µM, 48 h	relative to: untreated control	cell viability	93.1 ± 26.5%
CC(C)C[C@H](NC(=O)[C@@H](Cc1c[nH]c2ccccc12)NC(=O)[C@H](Cc1ccc(O)cc1)NC(=O)[C@H](CO)NC(=O)[C@H](Cc1c[nH]c2ccccc12)NC(=O)[C@H](Cc1c[nH]cn1)NC(=O)[C@@H]1CCC(=O)N1)C(=O)N[C@@H](CCCNC(=N)N)C(=O)N1CCC[C@H]1C(=O)NCC(N)=O			Chinese CPP children, girls	intramuscular, 22.5 mg, 12 months, day 1, month 6		patients, drug-related laboratory TEAEs	12.9%
CCN1CCN(c2cc(N3CCN(CC)CC3)nc(NCCNc3ccnc4cc(Cl)ccc34)n2)CC1	COS-7	WST-8		30 µM, 24 h, 0.1% DMSO, unit not given	relative to: vehicle control	metabolic activity	0.2 ± 0.11
C[C@@H]1CCO[C@H]2Cn3cc(C(=O)NCc4ccc(F)cc4F)c(=O)c(O)c3C(=O)N12			human paediatric patients, weight sample E to under sample F kg, plasma	oral, 50 mg film-coated tablet, steady state, geometric mean, population PK post-hoc, N 7		AUC(0-24)	48400 ng·h/mL

A few entries again:
SMILES	target or system	test	test system	setting	how to read	measurement	value
CC(=O)c1c(C)cc2cc(O)cc(O[C@@H]3O[C@H](CO)[C@@H](O)[C@H](O)[C@H]3O)c2c1O	HepaRG co-cultured with HK-2	MTT		33.33 µM, 48 h	relative to: untreated control	cell viability	93.1 ± 26.5%
Nc1ncn([C@H]2C[C@H](O)[C@@H](CO)O2)c(=O)n1			mouse plasma	1.2 ng/mL, -80 °C, three freeze-thaw cycles, with THU		mean deviation from nominal	9.78%
